Measured values collected from several papers.
Parts stem from different laboratories: compare values within a part only. Substitutions count along the parent as printed.

Series 1
Target: Histone acetyltransferase KAT6A, winged helix 1, GST fusion (KAT6A, Homo sapiens, UniProt Q92794, residues 1-85)
Technique: protein binding microarray
Form: double-stranded DNA, one strand shown
Matrix: in vitro
Concentration: not given
Notes: 8-mer, flanks averaged, mean of 2 arrays, mostly near background
Baseline: not given
Reading: higher = stronger binding
Residues (chain): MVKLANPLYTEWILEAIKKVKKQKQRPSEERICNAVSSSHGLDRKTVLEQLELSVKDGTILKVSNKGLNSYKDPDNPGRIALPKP
Oligonucleotide | E-score
CTAAACTA | -0.1
GTTCACTA | -0.0341
CGTCCCCC | 0.181
TAGGACAA | -0.35

Series 2
Target: Ras GTPase-activating protein-binding protein 1, C-terminal RGG region (G3BP1, Homo sapiens, UniProt Q13283)
Sequence of UniProt Q13283 (whole entry, looked up): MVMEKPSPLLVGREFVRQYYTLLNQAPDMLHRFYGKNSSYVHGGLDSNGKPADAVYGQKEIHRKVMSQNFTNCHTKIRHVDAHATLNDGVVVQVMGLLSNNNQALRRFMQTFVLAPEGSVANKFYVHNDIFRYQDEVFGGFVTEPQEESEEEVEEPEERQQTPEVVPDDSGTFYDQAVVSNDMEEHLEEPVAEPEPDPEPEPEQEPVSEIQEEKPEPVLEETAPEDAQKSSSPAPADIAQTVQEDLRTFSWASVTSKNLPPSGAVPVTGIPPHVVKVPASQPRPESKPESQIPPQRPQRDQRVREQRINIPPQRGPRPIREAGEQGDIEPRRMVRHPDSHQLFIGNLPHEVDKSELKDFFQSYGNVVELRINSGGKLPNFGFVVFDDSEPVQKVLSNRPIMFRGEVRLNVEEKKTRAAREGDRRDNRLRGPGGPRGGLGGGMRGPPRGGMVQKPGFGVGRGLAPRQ
Technique: RNA Bind-n-Seq
Form: RNA
Matrix: in vitro
Concentration: 1 µM
Notes: whole 134-nt RNA, ends assumed
Added: 150 mM KCl
Baseline: input library
Reading: higher = stronger binding
Oligonucleotide | log2 enrichment
GGGAGUUCUACAGUCCGACGAUCUCAAGUCCUGUGCUACACAUCGUAUGUACCGAAUCGGCCGGGGCCGGGGCCGGGGAAAGUAUUAUGUUACGCCGUUCGGAUCUGCACUUCUGGAAUUCUCGGGUGUCAAGG | -2.48
GGGAGUUCUACAGUCCGACGAUCUCAAGUCCUGUGCUACACAUCGUAUGUACCGAAUCGGUUUUUGGUGGAAAAAGGAAAGUAUUAUGUUACGCCGUUCGGAUCUGCACUUCCUGGAAUUCUCGGGUGUCAAGG | -1.15
GGGAGUUCUACAGUCCGACGAUCUCCUGUGCUACACAUCGUAUGUACCGAAUCAAACCCCCCCAAAUUUAAACCCCCCCAAAAAAGUAUUAUGUUACGCCGUUCGGAUCUGCAUGGAAUUCUCGGGUGUCAAGG | 0.475
GGGAGUUCUACAGUCCGACGAUCUCAAGUCCUGUGCUACACAUCGUAUGUACCGAAUCGGGUGGGUUUUUGGGAGGGAAAGUAUUAUGUUACGCCGUUCGGAUCUGCACUUCCUGGAAUUCUCGGGUGUCAAGG | 1.02

Series 3
Target: CCND1, cyclin fold, Cln2 fusion (human)
Technique: yeast growth competition, sequencing
Matrix: yeast
Notes: weak parent motif
Baseline: not given
Reading: higher = stronger binding
Starting sequence: GMNC docking peptide (human); KNAKRNLSSEFAN
Substitution | normalised enrichment score
A12E | 1.37
S8E | 0.491
S9A | 0.742
N2Q | 0.493

Single results of other studies
Molecule | target | test | system | conditions | how to read | measurement | result
PhoQ, residues 284 288 289 292 302 303 SLGVVW | PhoP, residues 12 14 15 18 19 LYHSL (Escherichia coli, UniProt P23836) | Sort-seq, measured: YFP reporter | E. coli | PhoQ-PhoP variant library, added: 10 µM Mg2+ | baseline: high Mg2+ state, higher = stronger signaling | fold induction | 0.562

A few entries again (series 1):
Oligonucleotide | E-score
TAGGACAA | -0.35
CGTCCCCC | 0.181
